Assay results from different studies.
Every numbered part comes from another study and shows a few of its results, in no order. Substitutions count along the parent as printed.

Series 1
Target: Prothrombin, mature alpha-thrombin (F2, Homo sapiens, UniProt P00734)
Method: aptamer microarray, sandwich
Molecule type: DNA with 2'F-ANA
Medium: in vitro
Concentration: 200 nM
Notes: whole 15-mer aptamer, many near background
With: Cy3 exosite-II aptamer, 400 nM
Reading: higher = stronger binding
Sequence: GGTTGGTGTGGTTGG
| Modification | mean fluorescence intensity |
| --- | --- |
| 2'F-ANA at 3 7 11 12 13 14 15 | 702 a.u. |
| 2'F-ANA at 4 5 8 9 11 13 14 | 43.2 a.u. |
| 2'F-ANA at 4 5 6 11 12 13 15 | 72.4 a.u. |
| 2'F-ANA at 1 4 9 10 13 14 | 52 a.u. |
| 2'F-ANA at 1 2 3 4 7 10 11 12 13 14 15 | 53.4 a.u. |
| 2'F-ANA at 1 7 8 13 | 149 a.u. |
| 2'F-ANA at 2 4 9 10 13 15 | 75.9 a.u. |
| 2'F-ANA at 1 2 4 6 7 8 9 10 11 13 15 | 55.5 a.u. |

Series 2
Target: UDP-N-acetylglucosamine--peptide N-acetylglucosaminyltransferase 110 kDa subunit (OGT, Homo sapiens, UniProt O15294)
Chain of UniProt O15294 (whole entry, looked up): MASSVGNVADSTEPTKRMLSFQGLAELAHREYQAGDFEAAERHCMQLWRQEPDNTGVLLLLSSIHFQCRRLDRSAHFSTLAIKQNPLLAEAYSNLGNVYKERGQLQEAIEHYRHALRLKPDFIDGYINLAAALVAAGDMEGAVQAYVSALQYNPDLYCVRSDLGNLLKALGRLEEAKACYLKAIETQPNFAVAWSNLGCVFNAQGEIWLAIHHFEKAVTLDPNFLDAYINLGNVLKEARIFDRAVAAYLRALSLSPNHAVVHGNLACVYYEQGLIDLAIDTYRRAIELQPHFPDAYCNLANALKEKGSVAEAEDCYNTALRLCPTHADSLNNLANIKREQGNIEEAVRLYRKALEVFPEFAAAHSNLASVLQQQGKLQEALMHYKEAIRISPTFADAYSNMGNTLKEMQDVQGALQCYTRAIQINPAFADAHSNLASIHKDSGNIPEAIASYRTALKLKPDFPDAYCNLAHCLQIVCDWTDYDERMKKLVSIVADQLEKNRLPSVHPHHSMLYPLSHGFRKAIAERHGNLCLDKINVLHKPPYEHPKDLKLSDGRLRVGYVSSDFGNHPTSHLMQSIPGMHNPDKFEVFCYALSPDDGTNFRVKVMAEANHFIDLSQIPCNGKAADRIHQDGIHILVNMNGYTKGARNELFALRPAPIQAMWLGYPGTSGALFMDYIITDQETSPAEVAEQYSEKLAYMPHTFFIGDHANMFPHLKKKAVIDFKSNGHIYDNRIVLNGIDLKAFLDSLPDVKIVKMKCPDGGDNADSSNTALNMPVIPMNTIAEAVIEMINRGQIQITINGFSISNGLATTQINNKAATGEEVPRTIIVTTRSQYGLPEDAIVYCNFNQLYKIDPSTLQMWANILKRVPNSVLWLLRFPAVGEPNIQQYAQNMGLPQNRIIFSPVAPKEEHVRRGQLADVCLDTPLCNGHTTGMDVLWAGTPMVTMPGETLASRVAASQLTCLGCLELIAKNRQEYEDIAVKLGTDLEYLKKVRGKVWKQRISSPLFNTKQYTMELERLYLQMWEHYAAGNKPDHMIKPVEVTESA
Read-out: phage display binding
Method: phage display panning NGS
Molecule type: peptide
Notes: panning round 3
Reference: OGT-panned over input library
| Molecule | fold enrichment |
| --- | --- |
| WPVQPMYQIFGRYPE | 2.32 |
| GADYLPKYQVVYNVR | 2.1 |
| WVLVPPFYQIVPSNR | 5.17 |

Series 3
Target: vanadate, free oxyanion
Method: microfluidic competitive inhibition
Medium: in vitro, cell-free expressed
Concentration: not given
Notes: derived from inhibition constants, unchanged parent 676 nM
Reading: lower = stronger binding
Parent: PafA, mature enzyme, eGFP fusion (Elizabethkingia meningoseptica, UniProt Q9KJX5); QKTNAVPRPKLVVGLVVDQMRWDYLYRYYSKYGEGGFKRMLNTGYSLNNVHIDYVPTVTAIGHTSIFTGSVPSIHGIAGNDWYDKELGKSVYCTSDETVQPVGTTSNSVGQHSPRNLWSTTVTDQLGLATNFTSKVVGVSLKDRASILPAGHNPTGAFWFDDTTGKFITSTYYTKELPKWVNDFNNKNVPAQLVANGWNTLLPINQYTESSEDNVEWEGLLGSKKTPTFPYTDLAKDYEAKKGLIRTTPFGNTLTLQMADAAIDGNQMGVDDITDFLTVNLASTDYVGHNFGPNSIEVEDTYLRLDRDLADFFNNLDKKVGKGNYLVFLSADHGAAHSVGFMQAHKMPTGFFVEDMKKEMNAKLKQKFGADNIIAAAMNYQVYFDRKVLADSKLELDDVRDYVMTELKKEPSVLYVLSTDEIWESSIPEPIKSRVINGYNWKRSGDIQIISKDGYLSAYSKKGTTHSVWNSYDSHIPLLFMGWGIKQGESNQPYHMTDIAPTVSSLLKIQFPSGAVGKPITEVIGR
| Change | oxyanion analog dissociation constant |
| --- | --- |
| L417G | 989 nM |
| I422G | 797 nM |
| S504G | 604 nM |
| Q192V | 820 nM |
| L148V | 807 nM |

Series 4
Target: CCND3, cyclin fold, Cln2 fusion (human)
Method: yeast growth competition, sequencing
Medium: yeast
Notes: weak parent motif
Reference: not given
Reading: higher = stronger binding
Parent: viral docking peptide; TSVRRALFTGGSD
| Change | normalised enrichment score |
| --- | --- |
| G11V | 0.0813 |
| G10E | 0.382 |
| T9M | 0.315 |
| F8H | 0.503 |
| S12K | -0.555 |
| R5H | 0.407 |
